{"data": "Measurements collected from several papers", "note": "Numbered parts are unrelated; each lists some results of a single study. Positions count from the first letter of the parent shown."}
{"data": "Series 1", "target": "Histone acetyltransferase KAT6A, winged helix 1, GST fusion (KAT6A, Homo sapiens, UniProt Q92794, residues 1-85)", "method": "protein binding microarray", "molecule type": "double-stranded DNA, one strand shown", "medium": "in vitro", "tested at": "not given", "notes": "8-mer, flanks averaged, mean of 2 arrays, mostly near background", "relative to": "not given", "reading": "higher = stronger binding", "Target sequence (chain)": "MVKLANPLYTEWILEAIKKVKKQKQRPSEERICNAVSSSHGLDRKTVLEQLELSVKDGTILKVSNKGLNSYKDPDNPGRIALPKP"}
{"Strand": "ACTTAACC", "E-score": -0.239}
{"Strand": "AACAGGAT", "E-score": -0.19}
{"Strand": "AAGGTGCT", "E-score": -0.117}
{"Strand": "ACCGTGCC", "E-score": 0.176}
{"Strand": "ATAAGCAA", "E-score": -0.194}
{"data": "Series 2", "target": "Sal-like protein 4, full length isoform B (SALL4, Homo sapiens, UniProt Q9UJQ4-2, residues 1-616)", "method": "universal PBM", "molecule type": "double-stranded DNA, one strand shown", "medium": "in vitro", "tested at": "not given", "notes": "8-mer, flanks averaged, mean of replicates", "reading": "higher = stronger binding", "Target sequence (chain)": "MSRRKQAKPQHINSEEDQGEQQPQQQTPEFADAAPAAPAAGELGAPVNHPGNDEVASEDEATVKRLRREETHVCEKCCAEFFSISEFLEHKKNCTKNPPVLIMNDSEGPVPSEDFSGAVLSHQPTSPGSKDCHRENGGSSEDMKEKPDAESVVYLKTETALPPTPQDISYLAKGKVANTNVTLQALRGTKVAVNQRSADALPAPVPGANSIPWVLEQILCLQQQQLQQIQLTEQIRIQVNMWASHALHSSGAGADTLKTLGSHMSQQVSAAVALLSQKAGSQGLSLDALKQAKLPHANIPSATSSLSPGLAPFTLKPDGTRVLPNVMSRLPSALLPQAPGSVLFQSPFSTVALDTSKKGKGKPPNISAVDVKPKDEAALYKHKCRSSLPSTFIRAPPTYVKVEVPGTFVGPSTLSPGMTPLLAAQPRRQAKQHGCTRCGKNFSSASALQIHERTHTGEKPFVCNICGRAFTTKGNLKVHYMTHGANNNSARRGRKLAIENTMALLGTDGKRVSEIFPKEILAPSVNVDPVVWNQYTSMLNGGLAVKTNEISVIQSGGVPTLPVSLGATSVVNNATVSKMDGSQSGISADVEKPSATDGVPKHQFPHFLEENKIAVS"}
{"Strand": "GATTATGA", "E-score": 0.399}
{"Strand": "ACTTTGAA", "E-score": 0.211}
{"Strand": "ACCGAGAG", "E-score": -0.12}
{"Strand": "GCCAGTGA", "E-score": -0.141}
{"Strand": "GAGGGGGC", "E-score": -0.286}
{"Strand": "GCCCGACA", "E-score": -0.179}
{"data": "Further values, each from its own experiment", "CCND3": "CCND3, cyclin fold, Cln2 fusion (human)", "P1": "E2F1 docking peptide (human); PPVKRRLDFETDH; partner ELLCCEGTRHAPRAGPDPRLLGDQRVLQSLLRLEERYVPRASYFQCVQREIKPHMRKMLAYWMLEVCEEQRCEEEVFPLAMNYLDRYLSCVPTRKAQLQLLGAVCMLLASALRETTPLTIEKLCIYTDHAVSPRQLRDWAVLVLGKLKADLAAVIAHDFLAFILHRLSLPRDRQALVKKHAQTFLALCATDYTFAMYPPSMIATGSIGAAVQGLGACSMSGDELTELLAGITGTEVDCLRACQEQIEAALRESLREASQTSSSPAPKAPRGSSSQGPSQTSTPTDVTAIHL", "P2": "CDC25A docking peptide (human); PPHRRRLLFACSP; partner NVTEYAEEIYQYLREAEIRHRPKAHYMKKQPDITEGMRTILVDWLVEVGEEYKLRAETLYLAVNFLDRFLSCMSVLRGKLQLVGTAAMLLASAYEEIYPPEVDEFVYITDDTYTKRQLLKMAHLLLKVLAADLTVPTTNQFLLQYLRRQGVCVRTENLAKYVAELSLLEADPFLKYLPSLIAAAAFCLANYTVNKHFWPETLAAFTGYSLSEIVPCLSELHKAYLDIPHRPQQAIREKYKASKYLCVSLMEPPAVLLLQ"}
{"Molecule": "P1 T11Y", "target": "CCND3", "test": "yeast growth competition, sequencing", "test system": "yeast", "conditions": "weak parent motif", "scale": "relative to: not given, higher = stronger binding", "endpoint": "normalised enrichment score", "result": 0.308}
{"Molecule": "PhoQ, residues 284 288 289 292 302 303 TVTVVA", "target": "PhoP, residues 12 14 15 18 19 AQALL (Escherichia coli, UniProt P23836)", "test": "Sort-seq, measured: YFP reporter", "test system": "E. coli", "conditions": "PhoQ-PhoP variant library, added: 10 µM Mg2+", "scale": "relative to: high Mg2+ state, higher = stronger signaling", "endpoint": "fold induction", "result": 9.42}
{"Molecule": "P2 L8F", "target": "CCNA1, cyclin fold, Cln2 fusion (human)", "test": "yeast growth competition, sequencing", "test system": "yeast", "conditions": "weak parent motif", "scale": "relative to: not given, higher = stronger binding", "endpoint": "normalised enrichment score", "result": 0.342}
{"Molecule": "P1 P2A", "target": "CCND3", "test": "yeast growth competition, sequencing", "test system": "yeast", "conditions": "weak parent motif", "scale": "relative to: not given, higher = stronger binding", "endpoint": "normalised enrichment score", "result": 0.0935}
{"Molecule": "LLKRLQDVVSERA", "target": "human cyclin B2", "test": "peptide binding, yeast competitive growth sequencing", "test system": "peptide, Saccharomyces cerevisiae, cyclin B2-Cln2 fusion", "conditions": "concentration not given, library 2", "scale": "direction not given", "endpoint": "binding enrichment score", "result": -1.59}
